Earlier results as cited in several papers.
Numbered parts are unrelated; values within a part may stem from several laboratories.

Block 1
Target: HLA class I histocompatibility antigen, A alpha chain, allele A*69:01 (Homo sapiens, UniProt P04439)
Observed: peptide-MHC binding
Molecule type: peptide
Quantity: IC50
FLGKIWPS: 2760 nM
DAAVVFPPV: 1 nM
DAAAPLPPV: 1 nM

Further values, each from its own experiment
Nc1cccc2c1C(=O)N(C1CCC(=O)NC1=O)C2=O (centres unmarked)
MTD (human, relapsed/refractory multiple myeloma): 4 mg

CC(=O)C[C@@H](c1ccccc1)c1c(O)c2ccccc2oc1=O
renal clearance (human): 0.003 L/h

Cc1cccc(-c2[nH]c(CNc3ccccc3F)nc2-c2ccc3ncnn3c2)n1
NOAEL (rat, female; 13 weeks, repeated dose): 10 mg/kg/day

N=c1c2c(-c3ccccc3)c(-c3ccccc3)n(Cc3ccccc3)c2ncn1[C@H]1CC[C@H](O)CC1
Vdss (mouse; intravenous, 3 mg/kg): 16.9 L/kg

BP(=O)(OCC1CCC(n2ccc(N)nc2=O)O1)OP(=O)(O)OP(=O)(O)O (centres unmarked)
relative incorporation efficiency (drug-resistant MMLV reverse transcriptase; Rp stereoisomer; relative to: ddCTP): 28 fold

For quick reference, copied from above (further values, each from its own experiment):
CC(=O)C[C@@H](c1ccccc1)c1c(O)c2ccccc2oc1=O
renal clearance (human): 0.003 L/h
